Published values of several laboratories.
± gives the spread as reported.

Compound	assay	test system	conditions	how to read	quantity	value
CCCCCOc1ccc(-c2ccc(-c3ccc(C(=O)N[C@H]4C[C@@H](O)[C@@H](O)NC(=O)[C@@H]5[C@@H](O)[C@@H](C)CN5C(=O)[C@H]([C@@H](C)O)NC(=O)[C@H]([C@H](O)[C@@H](O)c5ccc(O)cc5)NC(=O)[C@@H]5C[C@@H](O)CN5C(=O)[C@H]([C@@H](C)O)NC4=O)cc3)cc2)cc1		human neonates, plasma	intravenous, 1.5 mg/kg/day after 3 mg/kg loading		steady-state clearance	0.333 mL/min/kg
O=c1[nH]c(Cc2ccccn2)nc2c1cnn2C1CCOCC1		healthy men, extensive metabolizers, plasma	oral, 25 mg single dose, tablet, median		Tmax	30 min
CN[C@@](C)(C[18F])C(=O)O		SCID mouse SK-OV-3 xenograft, spleen	60 min, post injection		tissue uptake	11 ± 3.2 %ID/g
CC(C)C[C@H](NC(=O)[C@H](CCC(=O)O)NC(=O)[C@H](CCC(=O)O)NC(=O)[C@H](CC(=O)O)NC(=O)[C@H](CCC(=O)O)NC(=O)[C@H](CCC(=O)O)NC(=O)[C@H](CCC(=O)O)NC(=O)[C@@H](N)CC(=O)O)C(=O)O		rat, CSF	intranasal, 5.5 mg/kg, 30 min		concentration	1.13 ng/mL
CCc1cc(O)ccc1-c1ccc2c(-c3nc4c([nH]3)CN(C(C)C)[C@H](C(=O)N3CC(N(C)C)C3)C4)n[nH]c2c1		human, plasma	inhalation, 3 mg, single dose, geometric mean		t1/2	1480 min
CCCCCCCC(=O)NCC(=O)N[C@@H](Cc1ccccc1)C(=O)N[C@H](C=O)Cc1c[nH]cn1		male C57BL/6 mouse, plasma	dose not given	baseline: intranasal over oral	plasma concentration ratio	10
CSCC[C@@H]1NC(=O)[C@H](CC(=O)O)NC(=O)CNC(=O)[C@H](CCCNC(=N)N)NC(=O)[C@H](C)NC(=O)[C@H](CCC(=O)O)NC(=O)[C@H](CCCNC(=N)N)NC(=O)[C@@H]2CSSC[C@@H]3NC(=O)[C@H](CO)NC(=O)[C@H]([C@@H](C)O)NC(=O)[C@@H]4CCCN4C(=O)[C@H](C)NC(=O)[C@H](Cc4c[nH]c5ccccc45)NC(=O)[C@H](CC(=O)O)NC(=O)CNC(=O)[C@H](CCCNC(=N)N)NC(=O)CNC(=O)[C@H](CCC(N)=O)NC(=O)[C@@H]4CCCN4C(=O)[C@@H](NC(=O)CNC(=O)C(C)F)CSSC[C@H](NC(=O)CNC(=O)[C@H](C)NC(=O)[C@H](CC(C)C)NC(=O)[C@H](CSSC[C@@H](C(=O)NCC(N)=O)NC(=O)[C@H]([C@@H](C)O)NC(=O)[C@H](CCCNC(=N)N)NC(=O)[C@@H]4CCCN4C1=O)NC(=O)[C@H](CC(=O)O)NC(=O)[C@H](CO)NC(=O)[C@H](CC(=O)O)NC(=O)[C@H](CCC(N)=O)NC(=O)[C@H](CO)NC3=O)C(=O)N[C@@H](C(C)C)C(=O)N2 (some centres unmarked) [fluorine-18 labelled]		nude mice U-87 MG xenograft, muscle	intravenous, 2.5 h		tissue uptake	0.25 ± 0.04 %ID/g
NC(=O)c1nc(F)c[nH]c1=O	UV-Vis spectrophotometry	supercritical CO2	120 min, 328 K, 27 MPa, 828.51 kg/m^3		solubility	1950 µg/mL
CC(=O)N[C@H](CCCCNC(=O)C(C)F)C(=O)N[C@@H](CS)C(=O)N[C@@H](CS)C(=O)N[C@@H](CCC(=O)O)C(=O)N[C@@H](Cc1c[nH]cn1)C(=O)N[C@H](Cc1ccccc1)C(=O)N[C@@H](CCCNC(=N)N)C(=O)N[C@@H](Cc1c[nH]c2ccccc12)C(=O)N[C@@H](CS)C(=O)N[C@@H](CCCNC(=N)N)C(=O)N1CCC[C@H]1C(=O)N[C@H](C(N)=O)C(C)C (some centres unmarked) [fluorine-18 labelled]		C57BL/6 mouse male B16-F10 tumour, liver	intravenous, 2 h		tissue uptake	0.78 ± 0.05 %ID/g
CC(C)[C@@](O)(C(=O)OCC1=CC[N+]2([O-])CC[C@@H](O)[C@@H]12)[C@@H](C)O (some centres unmarked)		human whole blood	1000 ng/mL, 60 min, 37 °C		blood-to-plasma ratio	0.689
Cc1cc(Nc2ccc(C(F)(F)F)nc2)n2nc(C(C)(F)F)nc2n1		rat	oral, up to 750 mg/kg, GLP head-out plethysmography study		animals found dead or euthanized	2 to 3 animals per group
COc1ccc2c(c1)[nH]c1c(C)nccc12		Kunming mice, both sexes	oral, 14 days		LD50	329 to 606 mg/kg
CC(C)C(=O)OC[C@H]1O[C@@H](n2ccc(NO)nc2=O)[C@H](O)[C@@H]1O		rat blood dialysate	5 ng/mL, time not given, three freeze-thaw cycles, added: NHC 25 ng/mL		remaining compound	105.2 ± 0.92%
Cc1sc2c(c1C)C(c1ccc(Cl)cc1)=N[C@@H](CC(=O)OC(C)(C)C)c1nnc(C)n1-2		Ringer's with 10% beta-cyclodextrin	time not given, plastic vessel, low-bind vial	baseline: nominal 50 ng/mL	recovery	98.2%
O=C(O)c1ccc2c(c1)C(=O)OC21c2ccc(O)cc2Oc2cc(O)ccc21		excised Sprague-Dawley rat skin	50 µM, 0 to 5 h, 37 °C, 0.5% DMSO		Papp	0.0342 ×10⁻⁶ cm/s
CCCCCCCCCCCCCCCCCC(=O)N[C@H](C(=O)N[C@H](C(=O)N[C@@H](CCCNC(=N)N)C(=O)N[C@@H](CCCNC(=N)N)C(=O)N[C@@H](C)C(=O)N[C@@H](CC(=O)O)C(=O)N[C@@H](CCCNC(=N)N)C(=O)N[C@@H](C)C(=O)N[C@@H](C)C(=O)N[C@H](C(=O)N1CCC[C@H]1C(=O)NCC(=O)NCC(=O)NCC(=O)NCC(=O)N[C@@H](CCCNC(=N)N)C(=O)NCC(=O)N[C@@H](CC(=O)O)C(=O)O)C(C)C)C(C)C)[C@@H](C)CC	ELISA	Sprague Dawley rat male, blood	intravenous, 2.415 mg/kg		terminal half-life	~25.8 min

Compound	assay	test system	conditions	how to read	quantity	value
COc1ccccc1Nc1ccc2c(c1)C(c1ccccc1F)=NC(C)C(=O)N2 (centres unmarked)	shake flask	PBS	24 h, pH 7.4		solubility	3.9 µM
Cc1ccc(C(=O)Nc2ccc(S(=O)(=O)O)c3cc(S(=O)(=O)O)cc(S(=O)(=O)O)c23)cc1NC(=O)c1cccc(NC(=O)Nc2cccc(C(=O)Nc3cc(C(=O)Nc4ccc(S(=O)(=O)O)c5cc(S(=O)(=O)O)cc(S(=O)(=O)O)c45)ccc3C)c2)c1		zebrafish embryos	immersion, 72 h		maximum tolerated concentration	200 µM
Cc1cnc(C(=O)N[C@H]2CCCCC/C=C\[C@@H]3C[C@@]3(C(=O)NS(=O)(=O)C3CC3)NC(=O)[C@@H]3C[C@@H](Oc4nc5ccccc5c5ccccc45)CN3C2=O)cn1		healthy human volunteers, plasma	oral, dose not given, alone, omeprazole interaction study		AUC(0-24)	11100 ng·h/mL
CCCCCOc1ccc(-c2cc(-c3ccc(C(=O)N[C@H]4C[C@@H](O)[C@@H](O)NC(=O)[C@@H]5[C@@H](O)[C@@H](C)CN5C(=O)[C@H]([C@H](O)CC(N)=O)NC(=O)[C@H]([C@H](O)[C@@H](O)c5ccc(O)c(OS(=O)(=O)O)c5)NC(=O)[C@@H]5C[C@@H](O)CN5C(=O)[C@H]([C@@H](C)O)NC4=O)cc3)no2)cc1		human paediatric patients 6 to sample C years, plasma	intravenous, 3 mg/kg once daily, day 7, geometric mean		steady-state clearance	7 mL/min
NCC(=O)O			pH 7		logD	0
CC(C)[C@H](NC(=O)[C@@H]1CCCN1C(=O)[C@H](CCCNC(=N)N)NC(=O)[C@H](CO)NC(=O)[C@H](CCCCN)NC(=O)[C@H](C)NC(=O)[C@H](Cc1c[nH]cn1)NC(=O)CNC(=O)[C@H](CCCNC(=N)N)NC(=O)[C@H](CCCCN)NC(=O)[C@@H](NC(=O)[C@H](CO)NC(=O)[C@H](Cc1c[nH]cn1)NC(=O)[C@@H](NC(=O)CNC(=O)[C@H](CCC(=O)O)NC(=O)[C@H](Cc1c[nH]cn1)NC(=O)[C@H](CC(=O)O)NC(=O)[C@H](C)NC(=O)[C@H](CCC(=O)O)NC(=O)[C@H](CO)NC(=O)CNC(=O)[C@H](C)NC(=O)[C@H](CCC(=O)O)NC(=O)[C@@H](N)CC(=O)O)[C@@H](C)O)[C@@H](C)O)C(=O)O	LC-MS/MS	human serum	concentration not given, 4 h, room temperature, tube with gel separator	baseline: initial concentration	change in serum concentration	18.9 ± 8%
CC[C@H](C)[C@H](N)C(=O)N[C@@H](CC(C)C)C(=O)N1CCC[C@H]1C(=O)N[C@@H](Cc1c[nH]c2ccccc12)C(=O)N[C@@H](CCCCN)C(=O)N[C@@H](Cc1c[nH]c2ccccc12)C(=O)N1CCC[C@H]1C(=O)N[C@@H](Cc1c[nH]c2ccccc12)C(=O)N[C@@H](Cc1c[nH]c2ccccc12)C(=O)N1CCC[C@H]1C(=O)N[C@@H](Cc1c[nH]c2ccccc12)C(=O)N[C@@H](CCCN=C(N)N)C(=O)N[C@@H](CCCN=C(N)N)C(N)=O		sheep erythrocytes	15 µM, 1 h, pH 7.4	baseline: water lysis	hemolysis	4 ± 10%
Cc1nnc(C(=O)NC(C)(C)c2nc(C(=O)NCc3ccc(F)cc3)c(O)c(=O)n2C)o1	LC-MS/MS	rhesus monkeys, both sexes, brain, four regions combined	dose not given, 1 day after last dose, ten days dosing		median brain concentration	21.8 ng/g
[123I]c1cncc(OC[C@@H]2CCN2)c1	SPECT	human, temporal lobe	intravenous bolus, 9.1 mCi	baseline: plasma	tissue/plasma ratio	9.41
CCCCCCCCCCCCCCCCCC[N+](C)(C)C	substrate depletion	human liver microsomes	0.5 µM, 0 to 3 h, 37 °C, added: NADPH		intrinsic clearance	0.042 mL/h/mg protein
Oc1ccc2cc3ccc4cccc5ccc(c2c1)c3c45	UPLC-AMS	human, plasma	oral, 250 ng of [14C]-BaP		AUC	32.3 ± 18.9 fg BaP equivalents·h/mL
O=C(NCCCCCn1ccc2ccc(F)cc21)Oc1ccc(C(=O)O)cc1		porcine liver S9 fraction	20 µM, 30 min, added: BNPP 1 mM		inhibition of degradation	54%
Cc1ccc(Nc2nccc(N(C)c3ccc4c(C)n(C)nc4c3)n2)cc1S(N)(=O)=O		patients, plasma	oral, 800 mg, 24 h, fasted, geometric mean, added: omeprazole		Cmin	22800 ng/mL
CCC1(c2ccccc2)NC(=O)N(Cc2ccccc2)C1=O (single isomer, unassigned; (+))	inhibitor, item: metabolite M3	human liver microsomes, six donors	5 µM, added: THC 2 µM, tienilic acid, CYP3cide		inhibition	≤ 67%
CCCCCOc1ccc(-c2ccc(-c3ccc(C(=O)N[C@H]4C[C@@H](O)[C@@H](O)NC(=O)[C@@H]5[C@@H](O)[C@@H](C)CN5C(=O)[C@H]([C@@H](C)O)NC(=O)[C@H]([C@H](O)[C@@H](O)c5ccc(O)cc5)NC(=O)[C@@H]5C[C@@H](O)CN5C(=O)[C@H]([C@@H](C)O)NC4=O)cc3)cc2)cc1	population PK model	patients, typical weight sample D kg	intravenous, dose not given		central volume of distribution	26.7 L
CC[C@H](C)[C@H](NC(=O)[C@@H](N)CCCNC(=N)N)C(=O)N[C@H](C(=O)N1CCC[C@H]1C(=O)N[C@@H](C)C(N)=O)C(C)C		healthy volunteers, both sexes, plasma	intravenous infusion, 1.5 mg/kg daily, day 7, multiple ascending dose		AUC(0-t)	388 ± 280 ng·h/mL

For quick reference, copied from above:
Compound	assay	test system	conditions	how to read	quantity	value
Cc1ccc(C(=O)Nc2ccc(S(=O)(=O)O)c3cc(S(=O)(=O)O)cc(S(=O)(=O)O)c23)cc1NC(=O)c1cccc(NC(=O)Nc2cccc(C(=O)Nc3cc(C(=O)Nc4ccc(S(=O)(=O)O)c5cc(S(=O)(=O)O)cc(S(=O)(=O)O)c45)ccc3C)c2)c1		zebrafish embryos	immersion, 72 h		maximum tolerated concentration	200 µM
Cc1cnc(C(=O)N[C@H]2CCCCC/C=C\[C@@H]3C[C@@]3(C(=O)NS(=O)(=O)C3CC3)NC(=O)[C@@H]3C[C@@H](Oc4nc5ccccc5c5ccccc45)CN3C2=O)cn1		healthy human volunteers, plasma	oral, dose not given, alone, omeprazole interaction study		AUC(0-24)	11100 ng·h/mL
COc1ccccc1Nc1ccc2c(c1)C(c1ccccc1F)=NC(C)C(=O)N2 (centres unmarked)	shake flask	PBS	24 h, pH 7.4		solubility	3.9 µM
Cc1nnc(C(=O)NC(C)(C)c2nc(C(=O)NCc3ccc(F)cc3)c(O)c(=O)n2C)o1	LC-MS/MS	rhesus monkeys, both sexes, brain, four regions combined	dose not given, 1 day after last dose, ten days dosing		median brain concentration	21.8 ng/g
O=C(O)c1ccc2c(c1)C(=O)OC21c2ccc(O)cc2Oc2cc(O)ccc21		excised Sprague-Dawley rat skin	50 µM, 0 to 5 h, 37 °C, 0.5% DMSO		Papp	0.0342 ×10⁻⁶ cm/s
